Measured values from different studies.
A part holds a random share of what one study measured.

Series 1
Target: RNA binding protein fox-1 homolog 2, RRM domain, GST-SBP tag (RBFOX2, Homo sapiens, UniProt O43251-10, residues 100-194)
Method: RNA Bind-n-Seq
Molecule type: RNA
Medium: in vitro
Tested at: 365 nM
Notes: natural RNA segment, single round, ends assumed
Baseline: no-protein control
Direction: higher = stronger binding
Endpoint: RBNS enrichment (R)
Constant ends, left off below: GGGAGUUCUACAGUCCGACGAUC … UGGAAUUCUCGGGUGCCAA
Target sequence (chain): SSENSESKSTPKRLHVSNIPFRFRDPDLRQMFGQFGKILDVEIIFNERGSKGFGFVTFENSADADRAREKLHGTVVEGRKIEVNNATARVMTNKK
UUGUAAACCAUUUACUGUCUGGGCAAUAGUGACUCCGUUUAAUAAAAGCUUCCGUAGUGCAUUGGUAUGGAUUAAAUGCAUAAAAUAUUCUUAGACUCGAUGCUGUAUAA: 1.82
UGAUUAAAACAUUUGCUCAUAGCCAGCCUGCCUUUCUACGAGAUAGGCAGGACCUCUGAGCGAUGUAGGUUUUUUUAUUUUUAAGUUGUAUUUCUUUUCUCCCUGCUCUU: 0.319
UCCAGAAGGAAAUCAUUUUAGUUAUGAACUAAAUAAUAAAAAUUAGAACUUCAAAUGCGAUGGUCUUGACUAUUAGACCAGAUUUAGUAGCUCCAUAUCUAAGAUUUUUC: 0.526
UCCCGCCAGUCUCCAUUGAAUCAAUGGUGCAGGACAGAAAGCCAGUCAGACUAAUUUCCUUCUUUCCUCGCACUUCUCCCCACUCGUCAUCUUUUAACUAGUGUUUCACA: 0.468
AUGUGCUCGGUGUUCAGUGGUGUAUAUUUCUUCUCCCAGACAUGGGGCGUGUGCCCCAAGGGGUCUGAUCCCCUCCUUAGUCUUAGCUCAUGGGGCGGCUCAUGAGGAGC: 0.533
CCCUGGGCUCAAUUCACUUCCUUAUUUGACAAAGUGGAGGUGAGACUUGUAUUCUUAAAAUUGGAGGCUAGUUAUUUUGUCAAAUGCAUGUAAUGAACAGACCCGAAGGA: 23.4
UGCUUAGUGCCAUAGGUAGACUGAGUCUUCUGUAAGUCAUCAUUACAUAGUAAUUUUGGUUCUGAAUUUUACAUUAAAUUAUUUGAAUAUAUACAGACCUAAAUUUUAAA: 0.492
CAUGUGCAAUAAGACUGGUGUUCGUUUCCAUCAUGUCUGUAUACUUCUGUCAUCUAGACUGUGCAUCCCUGUAAUACCUGACUGAUCACAGUGUUAGUGCUGGUCAGAGA: 0.358
CUCCGUCUUGGCCAUGUCUAGUAAUUGCUAUGUGUUGGGAGAAACUUUGUGAAUGCACCAUUUUGAUGAUCAUGAAACGCUGAUGAAAAAUGCCUCCAAACAUUUUUCUG: 0.59

Series 2
Target: Cyclic AMP-dependent transcription factor ATF-1 (ATF1, Homo sapiens, UniProt P18846, residues 1-271, full length assumed)
Method: protein-binding microarray
Molecule type: double-stranded DNA, one strand shown
Medium: in vitro
Tested at: not given
Notes: k-mer, scored over probes, only values ≥0.25
Direction: higher = stronger binding
Endpoint: E-score
Target sequence (chain): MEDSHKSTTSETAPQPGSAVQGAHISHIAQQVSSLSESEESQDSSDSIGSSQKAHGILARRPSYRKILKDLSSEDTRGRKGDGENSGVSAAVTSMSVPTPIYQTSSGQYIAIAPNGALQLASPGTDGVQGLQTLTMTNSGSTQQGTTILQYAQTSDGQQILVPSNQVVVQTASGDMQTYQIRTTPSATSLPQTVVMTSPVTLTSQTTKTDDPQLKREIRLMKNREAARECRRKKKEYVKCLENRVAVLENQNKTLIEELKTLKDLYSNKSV
CGTAGAC: 0.304
ATGCGTC: 0.359
GGGTGAC: 0.349
CATCACG: 0.332
ACGTGAA: 0.266
GATGTCA: 0.295
CGTCACA: 0.485
CGTCATA: 0.48
ACCACGT: 0.336
CGTACGC: 0.257
ACGTGAC: 0.396
TACGACA: 0.278
ACGCGGA: 0.269
CGTGTGA: 0.303
GTACGTA: 0.389
CACGTAG: 0.379
GACGTAA: 0.455
AAGACGT: 0.277
ATACGTA: 0.416
ACGCGTA: 0.269
GACGTTA: 0.374

Series 3
Target: RING finger protein unkempt homolog, zinc fingers 1-6, GST-SBP tag (UNK, Homo sapiens, UniProt Q9C0B0, residues 30-357)
Method: RNA Bind-n-Seq
Molecule type: RNA
Medium: in vitro
Tested at: not given
Notes: RNA with constant flanks, ends assumed
Baseline: input RNA pool
Direction: higher = stronger binding
Endpoint: bound/input enrichment
Constant ends, left off below: GGGAGUUCUACAGUCCGACGAUC … CAACAGAGGAUUGAGCAUCA
Residues (chain): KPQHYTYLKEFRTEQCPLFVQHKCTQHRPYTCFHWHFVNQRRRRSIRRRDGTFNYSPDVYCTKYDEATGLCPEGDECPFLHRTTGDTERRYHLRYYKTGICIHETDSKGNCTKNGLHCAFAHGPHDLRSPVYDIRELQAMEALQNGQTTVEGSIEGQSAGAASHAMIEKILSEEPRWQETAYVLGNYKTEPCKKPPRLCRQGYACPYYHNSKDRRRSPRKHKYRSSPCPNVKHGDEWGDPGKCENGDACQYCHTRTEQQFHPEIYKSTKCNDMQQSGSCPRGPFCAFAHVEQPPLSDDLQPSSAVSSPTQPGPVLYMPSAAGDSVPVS
GCCCGCCUUUUCCUUUCUCACUUUGGAUUUUUAUCCUUAGAGGCAUUAAAGGAACCUGCAAACCGUCGUCUACCUCCUCAUCUUAUUGCACUCGAUUCUACCAUACCUGGAUUUUUUGAU: 0.193 ratio
GAGAGCUUUAUUACCAGACAUGACCUUUCCGGAAAGGUUGUCAAUAUAGAUACAAACUCACUCCGAUCUUCCAUGAGGCCUGGCUUUGAAGACAUAAUCCGAAGAUGUAUCCAGAGGUUC: 0.199 ratio
AGAGCUGCCCGUGGUGGGUGUCAGCAGUGUGUCAUGGUCGCCACACAGCAGGGGGUGUGACCGGUCAGCCACGUGAUCCUCAUCUGCACAGAAGCAGAGAGGGCCCCAGGCCCCUGGCCU: 0.201 ratio
UCAGACACCAUGGUGUGCCAGUCUUCCUCAACUGUAGGUCAGUCAUUCAGUGAACAACACAUCCGCCAACUUCAAGAAAGCAUUCGGGCAGAGAUACCCUGUGAAGAUGAACAAGAGCAA: 0.116 ratio
CCUGCCAACGGGGACUUCACCUUUGUGUCUUCGGCGGACGCGGAAGAUCUCAGCGGUUCUACCGCAGCUCCAGAUGUCAAAUUAAACCUCGGUGUAAGCGGAGAUUUCAUCAAAGAAUCU: 0.0266 ratio
CUGUAUUUAUAAAUGUAUAAUGUAUUUAGCUACUUUUUGGUUUAAAUGAACUUGUUGGGUCCGCUUGGUAAAUGUUAUAAUUUUUACUAUUUUCUACAAAGAAAAUAUUUUCUAAUUUAA: 14.5 ratio
UUUUUUUUUUUUUGGAUACAUCUUAACAUAUAAAAAUUAAGUUUUUGCCAUUCAACACCGCCGUAUCAUAUGGCCUGGAUAUAUUUGAAUGUGUAUGAAGUAAAGUUGCUUGAGAACAGG: 1.4 ratio
GGAAGUAAUCCUACAUCAGCCUCUGAUGAUUCCAAUGGGCUGGAGUGGGAAAAUGAUUUUGUCCGUGCCGAAAUGGAUGAUAAUGGAAAUUCCGAGUAUUCUGGAUUUGUAAAUCCUGUA: 0.113 ratio
AUGAUUUUGCAGUGUGGAAGCGUUGAAAAUUGAAAGUUACUGCUUUUCCACUUGCUCAUACCGUAAAGGGAUCCUUUCAGCUGCCAGUGUUGAAUAAUGUAUCAUCCAGAGUGAUGUUAU: 0.144 ratio
GCUAGUCAGUCUGGGGCAACAUUCUUUAGCAUCUCUGCUUCAUCCUUAACUUCUAAAUGGGCCGGUGAGGGGGAGAAAAUGGUCCGUGCAUUGUUUGCUGUUGCAAGGUGUCAGCAACCA: 0.663 ratio
CUGAGCUAAAGGAGUUAGCAUCUUUAUUUUUGUAUCAAAAAUAAAGGUUAUUUUGAAAUUAUCCGGAUUUUUACACAAUUCUGAAAUCUGUUGCUUUUGUAAACAAAUUGUUUGAUCUUA: 7.53 ratio

Series 4
Target: Phosphate system positive regulatory protein PHO4, full length, GST-tagged (PHO4, Saccharomyces cerevisiae, UniProt P07270, residues 1-312)
Method: competition protein-binding microarray
Molecule type: double-stranded DNA, one strand shown
Medium: in vitro
Tested at: 2 µM
Notes: whole 60-bp probe, lowest competitor level
With: Cbf1 competitor, 0.05 µM
Direction: higher = stronger binding
Endpoint: fluorescence intensity
Constant ends, left off below: … GTCTTGATTCGCTTGACGCTGCTG
Residues (chain): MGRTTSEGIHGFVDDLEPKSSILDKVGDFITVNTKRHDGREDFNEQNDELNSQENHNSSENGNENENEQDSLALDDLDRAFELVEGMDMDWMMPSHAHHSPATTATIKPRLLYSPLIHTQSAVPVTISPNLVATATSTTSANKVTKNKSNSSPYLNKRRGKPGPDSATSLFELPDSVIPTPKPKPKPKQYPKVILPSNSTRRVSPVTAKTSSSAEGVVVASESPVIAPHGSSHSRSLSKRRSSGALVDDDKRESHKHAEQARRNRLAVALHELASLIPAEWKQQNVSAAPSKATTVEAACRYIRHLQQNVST
AAAAAAGACGTAAAGCACGTGAAATAAGGAGATTAC: 14700 a.u.
TTCCTTTCTCATCCCCTCGTGAAGCGACTCGGCCCC: 5800 a.u.
AAATTACTAAGTTGTCACTGCACTTACCCCGTATGA: 4020 a.u.
CTTTGTCGTCCCTGGCACGGCTGTCTTGTGCTCAGT: 6630 a.u.
AGAAACGAAACAAATCATGTGTTACCCGTCCTGGAC: 7140 a.u.
AGGCGAGAAGTTCCACGCGTGTGAATTCCCCGGATG: 7800 a.u.
CATTCGAGTCTATTGTGCGTGTTGGCTTAGATTCTT: 8080 a.u.
CTTCTGTAAATTTTTCACGTGAAATGACGCGCCCCG: 8030 a.u.
CGCTACCAACTGCGCCATGTGCCCTAAAACGCGTAC: 11300 a.u.
ATCTTGTTGCTGTTCTACGTGCTTTAGTGTAGTATT: 8220 a.u.
AAAGCGGTAATTTTTCACGTGAGATCAAATATCTAT: 11200 a.u.
TCATTGTTACAGCCGCCCGTGGCCGTGTTCCACGGA: 9100 a.u.
ACATATAGTTTTTTGCACGTGATGGAACTTCTAAGT: 16400 a.u.
CTTCTGTAAATTTGTCGGGTGGGTGGACGCGCCCCG: 4280 a.u.
CGGGGTTAAGTTTGTAACGTGGGTGGCTTGCAGCAG: 9990 a.u.
TTTTAAGCCGCAATACGCGTGCGGACTTTTCACTGG: 9350 a.u.
CTAACGAAGGTTTTTCACGTGTCGTACAAGCCAAGT: 14500 a.u.
CGTCCTAGTGATTGCAGAGTGGGTGCCATGAGGAAG: 6810 a.u.
AAAGCGGTAATTTGGATTGTGGGTGCAGATATCTAT: 4510 a.u.
AAATTACTAAGTTGAGTGGTGGGTGACGCCGTATGA: 4210 a.u.
ACTTGTCCAGAAAGGAACGTGACTCGCAATTGGAAG: 14000 a.u.
CATACCCAACCTTTTCACGTGCGTTAAGATATTTGT: 15700 a.u.
TATTATAATACTCAACACGTGACTCGAGCCTTCCCA: 15400 a.u.
GCGACATCAACGAGTCACGTGACGGGCACTGCGTCG: 11400 a.u.
CTTCTGTAAATTTGTACAGTGGGTGGACGCGCCCCG: 3770 a.u.

Repeated from above (series 2):
CGTCACA: 0.485
GACGTAA: 0.455
ACGCGGA: 0.269
GACGTTA: 0.374
CATCACG: 0.332
CGTGTGA: 0.303
CACGTAG: 0.379
